Assay results gathered from unrelated publications.
Numbered parts are unrelated; each lists some results of a single study. Positions count from the first letter of the parent shown.

Sample 1
Target: ABI1, truncated, D143A, DHFR fusion (Arabidopsis thaliana)
Technique: DHFR PCA, deep sequencing
Matrix: yeast
Setting: methotrexate growth selection, single substitutions
Together with: (+)-ABA 17 µM
Baseline: wild-type fitted maximum
Direction: higher = stronger binding
Quantity: relative binding score
Starting sequence: PYL1, truncated, DHFR fusion (Arabidopsis thaliana); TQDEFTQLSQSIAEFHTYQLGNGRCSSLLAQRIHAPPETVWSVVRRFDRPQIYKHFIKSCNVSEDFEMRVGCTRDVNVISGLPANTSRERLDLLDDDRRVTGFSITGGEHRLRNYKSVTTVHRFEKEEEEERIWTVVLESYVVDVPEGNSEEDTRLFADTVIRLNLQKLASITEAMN; partner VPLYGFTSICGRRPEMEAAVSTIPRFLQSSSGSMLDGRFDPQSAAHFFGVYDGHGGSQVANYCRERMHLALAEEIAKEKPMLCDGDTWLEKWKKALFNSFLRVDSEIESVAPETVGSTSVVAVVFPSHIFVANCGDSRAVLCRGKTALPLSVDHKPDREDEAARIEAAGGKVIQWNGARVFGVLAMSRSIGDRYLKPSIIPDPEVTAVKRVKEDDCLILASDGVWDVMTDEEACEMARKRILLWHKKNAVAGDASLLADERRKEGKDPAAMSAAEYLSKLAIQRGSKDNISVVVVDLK
S27P: 16%
I12W: 14.4%
D75C: 81.3%
E130K: 96.8%
L138Q: 13.7%
S150W: 3.24%
I105S: 48.1%
E125F: 88%
G23K: 75.2%
I162Q: 9.45%
L138N: 14.5%

Sample 2
Target: UBE2N UBC core domain (UniProt P61088)
Technique: yeast two-hybrid
Matrix: yeast
Setting: mostly zero background
Baseline: not given
Direction: higher = stronger interaction
Quantity: lacZ reporter activity
B1: RNF181 RING domain (UniProt Q9P0P0); chain VIRGSQAELKCPVCLLEFEEEETAIEMPCHHLFHSSCILPWLSKTNSCPLCRYELPTDDDTY
B2: DTX1 RING domain (UniProt Q86Y01); chain QKVKNPPDEDCTICMERLVTASGYEGVLRHKGVRPELVGRLGRCGHMYHLLCLVAMYSNGNKDGSLQCPTCKAIYGEKTGTQ
B3: TRIM48 RING domain (UniProt Q8IWZ4); chain ISQVFQRELTCPICMNYFIDPVTIDCGHSFCRPCFYLNWQDIPILTQCFECIKTIQQRNLKT
Residues (chain): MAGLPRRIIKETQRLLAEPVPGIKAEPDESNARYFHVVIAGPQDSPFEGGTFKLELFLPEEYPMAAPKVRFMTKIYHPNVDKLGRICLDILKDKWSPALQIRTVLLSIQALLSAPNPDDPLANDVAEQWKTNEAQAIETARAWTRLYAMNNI
KEQLEKHNDICAICYQDMKSAVITPCSHFFHAGCLKKWLYVQETCPLCHCHLKNSSQLP (RNF145 RING domain (UniProt Q96MT1)): 0
B1 (RNF181 RING domain): 0
B2 (DTX1 RING domain): 4100
B3 (TRIM48 RING domain): 0

Sample 3
Target: CCNB1, cyclin fold, Cln2 fusion (human)
Technique: yeast growth competition, sequencing
Matrix: yeast
Setting: strong parent motif
Baseline: not given
Direction: higher = stronger binding
Quantity: normalised enrichment score
Starting sequence: RBL2 docking peptide (human); STTRRRLFVENDS
SYTRRRLFVENDS [T2Y]: 0.855
GTTRRRLFVENDS [S1G]: 1.22
STTRRRLFVENDG [S13G]: 1.43
STTRRRLFVENDC [S13C]: 1.06
HTTRRRLFVENDS [S1H]: 1.07
STTRRLLFVENDS [R6L]: 1.21
STTRRRLFVENDR [S13R]: 1.46
STTRRRLFVENDF [S13F]: 1.54
SWTRRRLFVENDS [T2W]: 0.314
STTRRRHFVENDS [L7H]: 0.718
STTRRRLFVECDS [N11C]: 1.32
STTRRRLNVENDS [F8N]: 0.0207
STTRRRLMVENDS [F8M]: 0.193

Sample 4
Target: Centromere-binding protein 1, full length, N-terminal tag (CBF1, Saccharomyces cerevisiae, UniProt P17106, residues 1-351)
UniProt P17106, sequence (whole entry, looked up): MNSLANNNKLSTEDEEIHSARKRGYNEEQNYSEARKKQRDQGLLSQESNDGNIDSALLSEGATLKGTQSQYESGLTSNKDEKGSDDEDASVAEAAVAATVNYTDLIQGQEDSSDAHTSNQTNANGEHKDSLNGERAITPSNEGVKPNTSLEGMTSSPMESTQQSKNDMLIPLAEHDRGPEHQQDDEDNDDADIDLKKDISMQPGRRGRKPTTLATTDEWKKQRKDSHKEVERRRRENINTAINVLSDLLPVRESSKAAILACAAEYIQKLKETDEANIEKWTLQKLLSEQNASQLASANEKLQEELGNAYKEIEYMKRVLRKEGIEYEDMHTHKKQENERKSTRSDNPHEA
Technique: protein-binding microarray
Form: double-stranded DNA, one strand shown
Matrix: in vitro
Concentration: 0.8 µM
Setting: whole 60-bp probe, no competitor
Direction: higher = stronger binding
Quantity: fluorescence intensity
GAAGTTCAACCCGGACACGTTGTTATTAGCTGGTAGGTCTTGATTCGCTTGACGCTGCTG: 604 a.u.
TGTACGAAGCTATGTGACGTCATTATAGTAGTTAGGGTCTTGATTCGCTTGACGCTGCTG: 563 a.u.
CTATACAGAGCAAGGAACGTGATGTAATGCATTTTCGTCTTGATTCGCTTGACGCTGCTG: 989 a.u.
CCTAACTACTATAATCACGTGCGATAGCTTCGTACAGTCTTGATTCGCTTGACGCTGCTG: 9710 a.u.
GAATCACGTGTGCCTGACCACCTTCTCCGAGCATAGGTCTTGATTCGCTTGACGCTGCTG: 9360 a.u.
CTAATATAAGGTGTTCACGCGATTTTCTTGTTATTCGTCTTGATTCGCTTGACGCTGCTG: 611 a.u.
CTACACATTAAATATATCGTGACTACCCAATCTTTCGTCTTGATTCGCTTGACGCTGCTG: 1320 a.u.
CTACTCAGCGGGTGTCACCACTTCGTCCTCATCTTCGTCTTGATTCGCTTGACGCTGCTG: 526 a.u.
CTATAAAAAGAAAAACACGAGGGGACCAGGTTGTTCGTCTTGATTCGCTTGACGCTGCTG: 617 a.u.
CCTAACTACTATAACCGCATCACATAGCTTCGTACAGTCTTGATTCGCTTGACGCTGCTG: 556 a.u.
CTAAGATTGAAATCCTCCGTGATTTGCTCCGGATTCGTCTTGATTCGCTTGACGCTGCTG: 513 a.u.
TGTACGAAGCTATGTGGTGACAGTATAGTAGTTAGGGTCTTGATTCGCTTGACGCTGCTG: 520 a.u.
CCTAACTACTATAACCACCAGGGATAGCTTCGTACAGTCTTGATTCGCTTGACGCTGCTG: 490 a.u.
GAACTCGTTATAAGTGACGTGCCTGTTAGGAAATAGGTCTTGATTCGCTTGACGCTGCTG: 531 a.u.
GAATATACACATTAGAGCATGACGATGAGTACTTAGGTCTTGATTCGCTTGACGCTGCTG: 575 a.u.
GAAAAAGGACAACAGAGGGTGATGATATGAAAATAGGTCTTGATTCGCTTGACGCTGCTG: 616 a.u.
CTATGAAAAAGTAATTTCGTGACCTTCGGTATATTCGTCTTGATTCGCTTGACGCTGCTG: 601 a.u.
GAAATAGAAACACAACACGTCATGGTTGTTCTTTAGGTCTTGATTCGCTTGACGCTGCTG: 527 a.u.

Sample 5
Target: RING finger protein unkempt homolog, zinc fingers 1-6, GST-SBP tag (UNK, Homo sapiens, UniProt Q9C0B0, residues 30-357)
UniProt Q9C0B0, sequence (30-357, looked up): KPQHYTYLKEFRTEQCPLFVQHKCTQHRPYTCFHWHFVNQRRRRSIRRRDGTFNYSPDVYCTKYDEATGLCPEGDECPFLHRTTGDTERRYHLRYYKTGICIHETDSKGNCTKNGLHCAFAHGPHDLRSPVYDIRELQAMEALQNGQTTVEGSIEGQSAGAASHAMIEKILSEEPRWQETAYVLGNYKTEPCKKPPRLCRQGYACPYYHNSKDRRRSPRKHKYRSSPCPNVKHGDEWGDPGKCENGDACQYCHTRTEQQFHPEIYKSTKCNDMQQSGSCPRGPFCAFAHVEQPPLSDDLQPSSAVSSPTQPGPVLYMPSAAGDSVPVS
Technique: RNA Bind-n-Seq
Form: RNA
Matrix: in vitro
Concentration: not given
Setting: RNA with constant flanks, human-mouse chimeric sites, ends assumed
Baseline: input RNA pool
Direction: higher = stronger binding
Quantity: bound/input enrichment
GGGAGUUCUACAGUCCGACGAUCGAUGAUAAUCACACAAACAAGUCACUGUUACAUGACCAGCCUUGGGAUUCUUUUCCUGAUUAAUAUUCUCCCUGGAACCACUAGCCAAGGGGAAUCAAGACGACAAGAACCCGGGGACUUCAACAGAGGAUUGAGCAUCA: 0.165 ratio
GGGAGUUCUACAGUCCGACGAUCAAAGAACCUCUCUCUGAUGAAGAUGAGGAAGACAAUGAUGAUGUUGAACCCAUUUCUGAAUUUAGAUUUGUGCCCAGUGAUAAGUCAGCGUUGGAGGCGAUGUUCACAGCAAUGUGUGAGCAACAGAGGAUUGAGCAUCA: 0.71 ratio
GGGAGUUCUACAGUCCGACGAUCGUGCCCUUCUCGCUGCUCCUGCGGGGCAGCUGGGAACACCCCUUCCGCUGGUACCCUGCACACAGCCGCCUCUUCGAUCAAGCUUUCGGGGUGCCCCGGUUGCCCGAUGAGUGGUCGCAGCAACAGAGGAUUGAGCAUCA: 0.128 ratio
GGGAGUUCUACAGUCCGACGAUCUCAGGAACCCAGACAAAUAUGAAUGUAAAUGAAGUCAUUAGCAACAGAGCAAUUGAAAUGUUAGGAGGUGAACUUGGCAGCAAGAAGCCUGUGCACCCCAAUGAUCAUGUUAAUAAAAGCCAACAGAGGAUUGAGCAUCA: 0.669 ratio
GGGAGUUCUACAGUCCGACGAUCCAGGGCAUCAUCUCUCGUGCUGUUAGACACCUGUUCAAGAGUAUUGAAGAAAAAAAAACCUCAGCGAUUAAAAACGGGCUUCCUGCUCCUGAAUUCAAAGUGAAUGCCCAGUUCCUAGAGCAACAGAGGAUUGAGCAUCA: 0.277 ratio
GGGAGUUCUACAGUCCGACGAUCGAGCCCAGCCGGCAGUUUGUAAAGGACUCAAUUCGGCUGGUUAAAAGAUGCACCAAACCCGACAGAAAAGAAUUCCAGAAGAUUGCCAUGGCAACAGCAAUAGGAUUUGCUAUCAUGGGACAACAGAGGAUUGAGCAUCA: 0.117 ratio
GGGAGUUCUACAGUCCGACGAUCUACUCAACUUUCUUGCCACAUUUUGAAUUCCAAGAUGUUAUUCCUCCAGAUGACUUCCUAACGAGUGAUGAAGAGCAAGAUUUGGUUUUAUUUGGAACUAUGAGAGGACAAGUUGUUGGACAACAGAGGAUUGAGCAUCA: 0.155 ratio
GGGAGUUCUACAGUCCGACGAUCCGGAGCCCUCCUCUCCCACAGGCCCAAGAUAUAACCCACCAGUGCCUUCUGUCUGCUUGUCAGCUCUGUCAAUCACGCCUGUCCUCUGUCCCUCUCACCAAGUGCCCAAAGUGGGGAGGGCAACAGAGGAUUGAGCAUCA: 0.492 ratio
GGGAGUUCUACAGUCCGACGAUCAGAAAGCAAAACUUGGAACGAUUUAAGAAAGGAGACGUAAGAUUCUUGAUUUGCACAGAUGUAGCUGCUAGAGGGAUUGAUAUCCACGGCGUUCCUUAUGUUAUAAACGUCACCCUGCCUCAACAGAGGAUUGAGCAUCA: 0.19 ratio
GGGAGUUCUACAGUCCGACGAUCUACUCAACUUUCUUGCCACAUUUUGAAUUCCAAGACAUUAUUCCUCCAGAUGACUUCCUAACUAGUGAUGAAGAAGUAGAUUUGGUUUUAUUUGGAACUAUGAGAGGACAAGUUGUUGGACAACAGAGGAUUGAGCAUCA: 1 ratio

Sample 6
Target: Ras GTPase-activating protein-binding protein 1, full length (G3BP1, Homo sapiens, UniProt Q13283)
UniProt Q13283, sequence (whole entry, looked up): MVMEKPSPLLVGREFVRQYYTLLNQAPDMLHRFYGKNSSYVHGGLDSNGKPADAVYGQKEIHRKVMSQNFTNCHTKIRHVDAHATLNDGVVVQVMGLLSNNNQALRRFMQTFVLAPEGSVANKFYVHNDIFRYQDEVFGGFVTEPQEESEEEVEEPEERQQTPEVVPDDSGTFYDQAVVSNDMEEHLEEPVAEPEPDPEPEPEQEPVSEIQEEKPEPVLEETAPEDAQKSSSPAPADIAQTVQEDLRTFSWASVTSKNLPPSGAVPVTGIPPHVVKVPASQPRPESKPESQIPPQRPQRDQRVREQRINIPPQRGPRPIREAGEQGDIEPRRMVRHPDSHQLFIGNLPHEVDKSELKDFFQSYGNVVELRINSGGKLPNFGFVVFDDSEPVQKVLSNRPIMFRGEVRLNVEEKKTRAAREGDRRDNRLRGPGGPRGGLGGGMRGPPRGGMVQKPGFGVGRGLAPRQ
Technique: RNA Bind-n-Seq
Form: RNA
Matrix: in vitro
Concentration: 200 nM
Setting: whole 134-nt RNA, ends assumed
Together with: 150 mM KCl
Baseline: input library
Direction: higher = stronger binding
Quantity: log2 enrichment
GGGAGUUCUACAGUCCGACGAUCGUCCUGUGCUACACAUCGUAUGUACCGAAUCGGGUGGGUUUUUUUGGGUUUUUUUGGGAAAGUAUUAUGUUACGCCGUUCGGAUCUGCACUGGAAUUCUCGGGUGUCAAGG: -0.281
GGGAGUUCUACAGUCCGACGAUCCAAGUCCUGUGCUACACAUCGUAUGUACCGAAUCGGUGGUUUUUGGUUUUUUUGGAAAGUAUUAUGUUACGCCGUUCGGAUCUGCACUUCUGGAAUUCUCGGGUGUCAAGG: -1.03
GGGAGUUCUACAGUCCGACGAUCUUUACCCCUCACUGGAGUCAGAUGAAGACAACCCCAUCUUUAAGUCCCGGUCGAAGAAAAGGAAAGGCUCAGACGACGCUCCCUACAGCCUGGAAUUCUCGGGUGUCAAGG: -0.035
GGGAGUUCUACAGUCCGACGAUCUGGCCCUGGUGGCAUGCGGGGAGGAAGAGGUGGCCUCAUGGAUCGUGGUGGUCCCGGUGGAAUGUUCAGAGGUGGCCGUGGUCGAGACAGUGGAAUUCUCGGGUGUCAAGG: -0.116
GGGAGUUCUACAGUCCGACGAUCUCCUGUGCUACACAUCGUAUGUACCGAAUCAAACCCCCCCAAACCCCCCCAAAUUUAAAAAAGUAUUAUGUUACGCCGUUCGGAUCUGCAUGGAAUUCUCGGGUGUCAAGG: 0.539
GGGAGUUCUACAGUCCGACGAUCCACAGACAACACGCACCCCCACAGACACAGAGGGAAGGGGUUGGGAUGGGGACAGGGUGCACAGCAGGGCGGGGUAGGACCCCAGCCCCUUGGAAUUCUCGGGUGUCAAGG: 2.11
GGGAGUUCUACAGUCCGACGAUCUGGCCCUGGUGGCAUGCGGGGAGGACGAGGUGGCCUCAUGGAUCGUGGUGGUCCCGGUGGAAUGUUCAGAGGUGGCCGUGGUGGAGACAGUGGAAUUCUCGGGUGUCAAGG: 0.168
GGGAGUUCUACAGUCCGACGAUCCUGUGCUACACAUCGUAUGUACCGAAUCGGGGCCCCCCCGGCCCCCCCGGGGCCCCCCCGGAAAGUAUUAUGUUACGCCGUUCGGAUCUGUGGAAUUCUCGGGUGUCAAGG: -0.315

For quick reference, copied from above (sample 4):
GAAATAGAAACACAACACGTCATGGTTGTTCTTTAGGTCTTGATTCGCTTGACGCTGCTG: 527 a.u.
TGTACGAAGCTATGTGACGTCATTATAGTAGTTAGGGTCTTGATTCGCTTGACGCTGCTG: 563 a.u.
CTACTCAGCGGGTGTCACCACTTCGTCCTCATCTTCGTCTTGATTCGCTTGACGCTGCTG: 526 a.u.
CCTAACTACTATAACCGCATCACATAGCTTCGTACAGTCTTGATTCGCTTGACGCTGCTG: 556 a.u.
GAATCACGTGTGCCTGACCACCTTCTCCGAGCATAGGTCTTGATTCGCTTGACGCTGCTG: 9360 a.u.
CTATAAAAAGAAAAACACGAGGGGACCAGGTTGTTCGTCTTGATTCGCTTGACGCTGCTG: 617 a.u.
GAACTCGTTATAAGTGACGTGCCTGTTAGGAAATAGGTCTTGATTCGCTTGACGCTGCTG: 531 a.u.
GAAAAAGGACAACAGAGGGTGATGATATGAAAATAGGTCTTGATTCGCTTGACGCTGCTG: 616 a.u.
CTAAGATTGAAATCCTCCGTGATTTGCTCCGGATTCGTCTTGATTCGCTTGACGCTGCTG: 513 a.u.
